Measured values of several laboratories.
Numbered parts are unrelated; each lists some results of a single study. Substitutions count along the parent as printed.
Chain of UniProt P62837 (whole entry, looked up): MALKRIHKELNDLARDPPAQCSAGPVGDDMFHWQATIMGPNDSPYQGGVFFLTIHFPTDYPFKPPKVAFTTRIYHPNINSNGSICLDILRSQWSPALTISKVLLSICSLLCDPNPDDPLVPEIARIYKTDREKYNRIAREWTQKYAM

Study 1
Target: Ras GTPase-activating protein-binding protein 1, RRM domain (G3BP1, Homo sapiens, UniProt Q13283)
Chain of UniProt Q13283 (whole entry, looked up): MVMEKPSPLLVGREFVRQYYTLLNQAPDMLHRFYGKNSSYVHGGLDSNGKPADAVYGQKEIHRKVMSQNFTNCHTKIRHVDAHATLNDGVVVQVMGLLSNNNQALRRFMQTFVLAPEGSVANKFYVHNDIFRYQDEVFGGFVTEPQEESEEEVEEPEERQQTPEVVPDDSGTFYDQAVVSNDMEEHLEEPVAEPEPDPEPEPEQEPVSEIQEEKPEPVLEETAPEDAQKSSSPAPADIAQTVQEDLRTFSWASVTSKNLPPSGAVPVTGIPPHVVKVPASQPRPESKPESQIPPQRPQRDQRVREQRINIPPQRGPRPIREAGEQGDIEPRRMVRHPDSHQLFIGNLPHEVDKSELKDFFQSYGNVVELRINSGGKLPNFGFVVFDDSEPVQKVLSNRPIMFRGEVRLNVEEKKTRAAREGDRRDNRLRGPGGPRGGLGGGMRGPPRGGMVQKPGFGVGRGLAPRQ
Technique: RNA Bind-n-Seq
Molecule type: RNA
Matrix: in vitro
Tested at: 1 µM
Notes: whole 134-nt RNA, ends assumed
Together with: 150 mM KCl
Reference: input library
Reading: higher = stronger binding
Constant ends, left off below: GGGAGUUCUACAGUCCGACGAUC … UGGAAUUCUCGGGUGUCAAGG
`AAGUCCUGUGCUACACAUCGUAUGUACCGAAUCGGGUUUUUGGGUGGGUUUUUGGGAAAGUAUUAUGUUACGCCGUUCGGAUCUGCACUU` gave a log2 enrichment of 0.547.
`GGAUUGGUAGCUUAUGUCGAUCUUGAUGAAAGAGCAAUUGAUGCUCUCAGGGAAUUUAAUGAAGAAGGAGCUCUGUCUGUACUACAGCAG` gave a log2 enrichment of -0.261.
`AAGUCCUGUGCUACACAUCGUAUGUACCGAAUCGGAAAAAGGUUUGGUUUUUUUGGAAAGUAUUAUGUUACGCCGUUCGGAUCUGCACUU` gave a log2 enrichment of -0.307.
`ACCAUGCAGGUGGGCAUCUUUGGGAAGUGGGGCAAGGGGGGGAUAGGGAGGGGGGUAACACUUUGGGAACAGGUGGAAACAGGUCGUUUC` gave a log2 enrichment of -0.523.
With `CAAGUCCUGUGCUACACAUCGUAUGUACCGAAUCGGGGAAAAGGAAAAGGAAAAGGAAAGUAUUAUGUUACGCCGUUCGGAUCUGCACUU` the log2 enrichment was -0.205.
`GCAGGAAGUAAAAACAAAUGGAAAUGCUUCGGAUAGUGGUAGGGGUGGGGGUUGCUAAGGAAAGGGUGGGAUGGGAGUGGGUAAAGAGUU` has a log2 enrichment of 1.31.
`UCCUGUGCUACACAUCGUAUGUACCGAAUCGGGGAAAAAGGAAAAAGGGGAAAAAGGGGAAAGUAUUAUGUUACGCCGUUCGGAUCUGCA` gave a log2 enrichment of 0.047.
For `AAGUCCUGUGCUACACAUCGUAUGUACCGAAUCGGGAAAGGGGAAAGGGGAAAGGGAAAGUAUUAUGUUACGCCGUUCGGAUCUGCACUU`, the log2 enrichment was 0.498.

Study 2
Target: ABI1, truncated, D143A, DHFR fusion (Arabidopsis thaliana)
Technique: DHFR PCA, deep sequencing
Matrix: yeast
Notes: methotrexate growth selection, single substitutions
Together with: (+)-ABA 0.11 µM
Reference: wild-type fitted maximum
Reading: higher = stronger binding
Starting sequence: PYL1, truncated, DHFR fusion (Arabidopsis thaliana); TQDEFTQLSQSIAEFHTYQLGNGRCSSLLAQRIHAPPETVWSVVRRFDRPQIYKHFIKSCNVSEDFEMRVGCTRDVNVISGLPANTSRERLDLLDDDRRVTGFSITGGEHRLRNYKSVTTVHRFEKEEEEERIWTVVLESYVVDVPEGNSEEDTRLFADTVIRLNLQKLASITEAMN
`T135H` — result for “relative binding score”: -7.14%.
`L29K` — result for “relative binding score”: -0.00887%.
For `G107Q`, “relative binding score” read 16.8%.
Under “relative binding score”, `E139L` is recorded as 1.17%.
Under “relative binding score”, `E128R` is recorded as 22.9%.
`R99H` — result for “relative binding score”: 27.7%.
`T135P` — result for “relative binding score”: 2.17%.
For `A170W`, “relative binding score” read -7.22%.

Other studies, line by line
For `PDCD5 (Homo sapiens, UniProt O14737)`, interaction screen read “cross-linked” (CCT4 (Homo sapiens, UniProt P50991); cross-linking MS; hits only).
Under “lacZ reporter activity”, `BRCA1 RING domain (UniProt P38398)` is recorded as 0 (UBE2D2 UBC core domain (UniProt P62837); yeast two-hybrid; yeast; mostly zero background; reference: not given, higher = stronger interaction).
`CEP120 (Homo sapiens, UniProt Q8N960)` — result for interaction screen: “cross-linked” (RRBP1 (Homo sapiens, UniProt Q9P2E9); cross-linking MS; hits only).
Under binding, `MQGKDFNHL` is recorded as “inactive” (HLA class I histocompatibility antigen, A alpha chain, allele A*80:01 (Homo sapiens, UniProt P04439); peptide-MHC binding; peptide; concentration not given).
Under cross-linked residues, `MCM2 (Homo sapiens, UniProt P49736)` is recorded as “D856 to D592” (MCM6 (Homo sapiens, UniProt Q14566); cross-linking MS; cell fractions; together with: DHSO).
For `SEPTIN2 (Homo sapiens, UniProt Q15019)`, interaction screen read “cross-linked” (SEPTIN11 (Homo sapiens, UniProt Q9NVA2); cross-linking MS; hits only).
